Experimental data gathered from unrelated publications.
Every numbered part comes from another study and shows a few of its results, in no order.

Block 1
Target: RNA binding protein fox-1 homolog 2, RRM domain, GST-SBP tag (RBFOX2, Homo sapiens, UniProt O43251-10, residues 100-194)
Method: RNA Bind-n-Seq
Form: RNA
Sample: in vitro
Concentration: 365 nM
Notes: natural RNA segment, single round, ends assumed
Relative to: no-protein control
Direction: higher = stronger binding
Shared flanks, not repeated: GGGAGUUCUACAGUCCGACGAUC … UGGAAUUCUCGGGUGCCAA
Construct (chain): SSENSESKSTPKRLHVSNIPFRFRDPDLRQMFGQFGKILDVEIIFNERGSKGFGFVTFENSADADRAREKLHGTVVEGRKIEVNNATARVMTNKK
Sequence | RBNS enrichment (R)
UUUCCCCCUUACUGUCAUUGGUCAGUGGAGCAGAUUCUCAUGGCUGUAGGUAGUUGCUACACAGGAAGCGAAGGAACUUUGGGGAGUCACAAGGUGAGUGGGUAGGGGGG | 1.04
UCGGGGAGGGAUUCGGCAUGGCCGCGGGGUACCUUCCCAGGCCAGGGCCCUGGAGGCAACUGGCACGGCCUGGUCCCCCUGCUUUGCUGUAUUCUGAUUCCCCAACCCGC | 0.21
GGGCAUCCCUGAGCUAAUCCCCACCCUCCAGUACAUUCCUAGGUCCUGGUCAUUUAGUUCAGAACAGGUGUCCUUUCUCUGUGACCAAACUUACUUUCUCUAAAAUUCCU | 0.26
UCUAGGCACUACAUAUGUAAUUGGUAAAGAAAAGGCAUUUUCUUAAGAGUUAUAACUAUGUAAACAUUGUAUAAUGAUAUGAAAUAAAACGCACAUUUAGGACAUUUUCU | 0.445
UCCCCCUGUUGGUACAUUUGGUUACCUCAUUUUGCCGUUUCAGAUUGUGAAAGCUCACAGGGGUGUUUUUUGGAAUCAUUUGCUGAGUCAUUUUCUCAAAUCAUAUUCCA | 0.438
GGAGCCAUAUUCGCAGUCUUCGUUUGUCAGUCAGCUGGGUGACCUUGAAUAAGCUGCUGCUUACCCCACUGAGCCUCAGUUUUUCCUAUGUAAGAGUGAUAUAAAACCUA | 0.316
UGAGUUGCUGACUGAAUCUAUCUUAUACUGUGCUUCUGCAACAACAAAAAUUAUGCAGAAAAAUUCAUUUGAAUAUCCAUCACUUAAAUGGUGACAAUAACAACUUCAGA | 0.531
GUGUACAGUAUGUGUGGAAUAAAAAAGGGAAACUGUUUUCACAAGCUGUUGUUUGUUUCAUAAUUGGAUCAGUCCAUAGCUACCCACAUUGCACUGAGCUUGCCAGUGGU | 0.43

Block 2
Target: Interferon regulatory factor 7, full length, phosphomimetic (IRF7, Homo sapiens, UniProt Q92985, residues 1-503, S101K/S471D/S472D/S475D/S476D/S477D/S483D/S484D/S487D)
Method: protein-binding microarray
Form: double-stranded DNA, one strand shown
Sample: in vitro
Concentration: 250 nM
Notes: 60-bp whole probe
Added: salmon DNA 0.4 mg/ml
Relative to: random background probes
Direction: higher = stronger binding
Shared flanks, not repeated: GCCTAGCAC … GTCTTGATTCGCTTGACGCTGCTG
Construct (chain): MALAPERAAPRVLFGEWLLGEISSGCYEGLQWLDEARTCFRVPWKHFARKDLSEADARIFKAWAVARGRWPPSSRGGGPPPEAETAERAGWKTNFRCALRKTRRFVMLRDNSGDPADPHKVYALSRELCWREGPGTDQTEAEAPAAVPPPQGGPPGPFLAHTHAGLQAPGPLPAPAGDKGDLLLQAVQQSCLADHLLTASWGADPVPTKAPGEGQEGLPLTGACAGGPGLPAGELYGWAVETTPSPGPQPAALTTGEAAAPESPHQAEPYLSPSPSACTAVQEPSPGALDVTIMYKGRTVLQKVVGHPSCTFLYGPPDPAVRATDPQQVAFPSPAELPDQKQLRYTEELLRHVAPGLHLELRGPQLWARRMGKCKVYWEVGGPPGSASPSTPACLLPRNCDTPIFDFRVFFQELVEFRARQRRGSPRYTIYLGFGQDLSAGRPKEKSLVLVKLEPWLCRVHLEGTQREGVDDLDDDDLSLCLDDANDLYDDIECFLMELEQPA
Sequence | log fluorescence
GGCTGTTTGGTTCTTATCCTGTGCTAG | -0.579 z-score
TCATCTTTCGTTACTTCACTGTGCTAG | 1.42 z-score
TTAGGACTGGATTATCGGTTAGTGCTA | 0.456 z-score
GTAGATATCAGTTTCGATTAGTGCTAG | 8.25 z-score
TTGTTTTTTTCTATATGCAAGTGCTAG | 2.35 z-score
TTAGGCATCGGTCTCGGTTAGTGCTAG | 1.47 z-score
TTGGGTCTCCTTATCCTTTAGTGCTAG | 0.146 z-score
TGAGGACTGGGGACTGGGTTAGTGCTA | -0.64 z-score
TCAACTTGGAATTTCCCACTGTGCTAG | 0.456 z-score
GGCCCTATAGGTTTCTATATGTGCTAG | 1.81 z-score
TTAGATCTCAGACTGGAGTAGTGCTAG | -0.0806 z-score
CTCCACTTGTGTTTGGGCATGTGCTAG | -0.0139 z-score
TTAGATATCAGTCTCGACTAGTGCTAG | 0.352 z-score
TTAGGATTCGGGTATCGGTTAGTGCTA | 2.24 z-score
TTGTGTTTGGGCATTTTTCTAGTGCTA | -0.771 z-score
TTAGGACTGGGTTTCGGCTAGTGCTAG | 1.36 z-score
TCAATTTTCTGAATGCCACTGTGCTAG | 1.27 z-score
TTTAGATTTTTTTTCCTAATGTGCTAG | 1.14 z-score
AACGATATCGGGTTTCGAGACGTGCTA | 2.86 z-score

Block 3
Target: Sal-like protein 4, full length isoform B (SALL4, Homo sapiens, UniProt Q9UJQ4-2, residues 1-616)
Method: universal PBM
Form: double-stranded DNA, one strand shown
Sample: in vitro
Concentration: not given
Notes: 8-mer, flanks averaged, mean of replicates
Direction: higher = stronger binding
Sequence | E-score
TCCCGCGA | -0.0572
CGGGCCGC | -0.448
ATTTGATG | 0.206
CGCGGCAG | -0.397
GCTTGAAC | 0.0456
AGCTAAGA | -0.0673
ACTATCGG | -0.0232
CCTTTAAA | 0.0365
AGGCGCAT | -0.128
AGCGCGAC | -0.223
GACACAAA | 0.0604
CGGGCAAC | -0.324
ATCATTCC | 0.007
ATAAGAAG | 0.188
AACTCGCA | 0.0251
AAAACGTG | 0.152
ATGCTTGG | 0.124
GCCAGTAA | -0.0828
GCCGTACC | -0.255
TATTCCGA | 0.188
AACATCGT | -0.0465
AGAGCAAG | -0.111
AGCTTCCT | 0.0253
CCGAGGTC | -0.348
GTGGTGTA | 0.112

Block 4
Target: Histone acetyltransferase KAT6A, winged helix 2, GST fusion (KAT6A, Homo sapiens, UniProt Q92794, residues 85-181)
Method: protein binding microarray
Form: double-stranded DNA, one strand shown
Sample: in vitro
Concentration: not given
Notes: 8-mer, flanks averaged, mean of 2 arrays, mostly near background
Relative to: not given
Direction: higher = stronger binding
Target sequence (chain): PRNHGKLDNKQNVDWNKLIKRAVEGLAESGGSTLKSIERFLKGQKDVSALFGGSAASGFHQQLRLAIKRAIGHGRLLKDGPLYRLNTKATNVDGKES
Sequence | E-score
ATCGATAA | -0.23
ACGGTTCG | -0.13
GACACATA | -0.0914
CGATTGAC | -0.124
CTCTGACA | 0.121
GATTTAAA | -0.0788
GCGGGAAA | 0.25
CACGGGAA | -0.0322
CCCGCCGG | 0.227
AACAGCTG | -0.0147
TAAGCTTA | 0.0582
ACCTGCAG | 0.0507
CTGCGCTC | 0.0478
AGCGTGTA | -0.107
ACTATCAT | -0.0157
ATGGCTTA | -0.0645
ACGGGGCG | 0.174
ACGCCTCT | -0.0882
CATTGATC | 0.0049
ACTGGCAA | -0.0577
CAGCTATC | -0.138
